Experimental data from different studies.
Lines come from different studies, so protocols differ. ± gives the spread as reported.
SCTR: Secretin receptor (SCTR, Homo sapiens, UniProt P47872)
UniProt P47872, sequence (whole entry, looked up): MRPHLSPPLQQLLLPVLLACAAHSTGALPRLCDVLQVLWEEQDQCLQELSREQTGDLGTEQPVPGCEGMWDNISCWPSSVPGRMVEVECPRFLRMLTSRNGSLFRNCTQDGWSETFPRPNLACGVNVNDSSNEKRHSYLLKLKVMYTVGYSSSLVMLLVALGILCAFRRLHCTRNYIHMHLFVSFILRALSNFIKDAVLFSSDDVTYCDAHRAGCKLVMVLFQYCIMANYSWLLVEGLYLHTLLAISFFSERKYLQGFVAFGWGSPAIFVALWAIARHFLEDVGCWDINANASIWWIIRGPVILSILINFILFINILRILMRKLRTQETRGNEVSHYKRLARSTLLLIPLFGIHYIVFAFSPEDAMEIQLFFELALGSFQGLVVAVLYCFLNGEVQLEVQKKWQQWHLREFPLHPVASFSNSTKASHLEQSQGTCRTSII

SMILES = COc1ccc2c(c1)c(CC(=O)OCC(=O)c1ccccc1)c(C)n2C(=O)c1ccc(Cl)cc1; test system = BALB/c mice, acetic acid writhing; setting = intraperitoneal, 30 mg/kg, 20 min count; endpoint = writhing count; value = 9.33 ± 1.33
SMILES = CCCCCCCCCCCC(=O)NCCC(=O)N[C@@H](CCCNC(=N)N)C(=O)N[C@@H](CCCNC(=N)N)C(=O)N[C@@H](CCCNC(=N)N)C(=O)N[C@@H](CCCNC(=N)N)C(=O)N[C@H](CCCNC(=N)N)C(=O)N[C@H](CCCNC(=N)N)C(=O)N[C@H](CCCNC(=N)N)C(=O)N[C@H](CCCNC(=N)N)C(=O)N[C@H](CCCNC(=N)N)C(=O)N[C@@H](CCCCNC(=S)Nc1ccc2c(c1)C(=O)OC21c2ccc(O)cc2Oc2cc(O)ccc21)C(N)=O; target or system = Jurkat; assay = RP-HPLC fluorescence, refers to: Arg peptide metabolite; test system = culture medium; setting = 6 h; endpoint = peak area; value = 62.6%
SMILES = O=C1CCN(Cc2ccccc2)CC1C(C[N+](=O)[O-])c1ccccc1 (centres unmarked); test system = mouse acetic acid writhing; setting = 50 mg/kg, with: yohimbine 1 mg/kg pretreatment; endpoint = number of writhes; value = 54.9 ± 1.3
SMILES = CCc1nnc(NS(=O)(=O)c2ccc(NC(=S)NC(=O)/C=C/c3ccc(F)cc3)cc2)s1; test system = NXS2 allograft, A/J mice, tumour; setting = intraperitoneal, 20 mg/kg daily, 3 weeks; how to read = reference: vehicle; endpoint = IL-6 level; value = decreased
SMILES = O=c1c(OCc2ccccc2)c(-c2cccc([N+](=O)[O-])c2)oc2ccccc12; test system = diabetic rat; setting = 5 mg/kg, p-nitrophenyl β-glucoside induced; endpoint = serum alanine aminotransferase; value = 44.6 ± 2.98 IU
SMILES = O=C(CCN1CCC(O)CC1)Nc1nc(-c2ccccc2)cs1; setting = 0.1 mM, 20 min; endpoint = DPPH radical scavenging; value = 23.7%
SMILES = [64Cu+2].c1ccc(CNCc2ccc(CN3CCCN4CCNCCCN(CC4)CC3)cc2)nc1; target or system = CXCR4; test system = NOD/SCID mouse, U87 and U87-stb-CXCR4 xenografts, pancreas; setting = iv, 30 min, ex vivo; endpoint = tissue uptake; value = 1.31 ± 0.18 %ID/g
SMILES = COc1c2c(cc3oc(COC4OC(CO)C(O)C(O)C4O)cc(=O)c13)OC(C(C)(C)O)C2 (centres unmarked); assay = analgesia; test system = mouse; setting = oral, 2 mg/kg, 1 h; endpoint = hot plate latency; value = 11.1 ± 1.87 s
SMILES = Cc1ncc([N+](=O)[O-])n1CCOCc1nnc(SCC(=O)c2ccc(O)cc2)o1; setting = 75 µg/mL, 45 min; endpoint = DPPH scavenging; value = 56.24 ± 0.37%
SMILES = N#Cc1ccc(-c2cc(=O)c3ccc4[nH]c(C(F)(F)F)nc4c3o2)cc1; assay = ELISA; test system = 5xFAD mice, brain; setting = dose not given, chronic treatment; endpoint = IL-6 level; value = decreased
SMILES = COc1ccc(-c2cc(C(F)(F)F)nc(S(=O)(=O)CCCC(=O)Nc3ccc(F)cc3F)n2)cc1OC; target or system = SCTR; assay = increase of tracer binding, TR-FRET; test system = HEK293 membranes; setting = with: Fluo-Sec 6 nM; endpoint = EC50; value = 6.3 ± 3.8 µM
SMILES = COc1cc(CCC(C)=O)ccc1O; target or system = mAb 4-AT4; assay = antibody binding, indirect competitive ELISA; setting = with: coating antigen hapten 4-OVA; endpoint = IC50; value = > 4 µg/mL
SMILES = CCCC[C@H](NC(=O)[C@@H](NC(=O)[C@H](CC(=O)O)NC(=O)[C@H](CCC(N)=O)NC(=O)[C@H](CC(C)C)NC(=O)[C@H](CC(C)C)NC(=O)[C@H](CCCN)NC(=O)[C@H](CCCNC(=N)N)NC(=O)[C@H](C)NC(=O)[C@H](CO)NC(=O)[C@H](CC(C)C)NC(=O)[C@H](CCC(N)=O)NC(=O)[C@H](CC)NC(=O)[C@H](CC(C)C)NC(=O)[C@@H](NC(=O)[C@H](CCCN)NC(=O)[C@H](CCCNC(=N)N)NC(=O)[C@H](Cc1ccc(O)cc1)NC(=O)[C@H](CO)NC(=O)[C@H](CC(N)=O)NC(=O)[C@@H](NC(=O)[C@H](Cc1ccccc1)NC(=O)[C@@H](NC(=O)[C@H](C)NC(=O)[C@H](CC(=O)O)NC(=O)[C@@H](C)NC(=O)[C@H](Cc1ccc(O)cc1)NC)[C@@H](C)CC)[C@@H](C)O)C(C)C)[C@@H](C)CC)C(=O)N[C@@H](CC(=O)O)C(=O)N[C@@H](CCCNC(=N)N)C(=O)NCC; assay = GH release, ELISA; test system = male Sprague-Dawley rat, anaesthetised, serum; setting = subcutaneous, 3 µg/kg, 0 min; endpoint = serum GH level; value = 44 ± 8.9 ng/mL
SMILES = COc1cccc(OC)c1OCCCn1cc(CCCNc2nc3c(c(=O)[nH]2)[n+](C)cn3C2OC(COP(=O)(O)OP(=O)([O-])OP(=O)(O)OCC3OC(n4cnc5c(=O)[nH]c(N)nc54)C(O)C3O)C(O)C2O)nn1 (centres unmarked); assay = cap-dependent translation, inhibitor; test system = rabbit reticulocyte lysate; setting = concentration not given; how to read = reference: m7GpppG; endpoint = relative inhibitory potency; value = 6.9
SMILES = Cc1cc2c(c(=O)o1)C=C1CCC(C(C)CNCc3ccc(O)cc3)CC1O2 (centres unmarked); test system = mouse hippocampal slices; setting = 1 µM; endpoint = NMDA-dependent LTP magnitude; value = 247 ± 20.7%
SMILES = CCOC(=O)c1cc2c(N)c(C(=O)OC)sc2nc1C; assay = refers to: urine output, osmolality, urea; test system = Sprague-Dawley rats; setting = subcutaneous, dose not given; endpoint = time to return to baseline; value = 12 h
SMILES = O=C(CSc1nc(-c2ccccc2)cc(C(F)(F)F)n1)Nc1cccc(Cl)c1Cl; target or system = SCTR; assay = increase of tracer binding, TR-FRET; test system = HEK293 membranes; setting = with: Fluo-Sec 6 nM; endpoint = EC50; value = 6.4 ± 3.3 µM
SMILES = Nn1c(S)nnc1CCN(c1ccccc1)S(=O)(=O)c1ccccc1; assay = tail flick, radiant heat; test system = rat; setting = 200 mg/kg; endpoint = analgesic protection; value = 113%
SMILES = CCCC[C@H](NC(=O)[C@@H](NC(=O)[C@H](CC(=O)O)NC(=O)[C@H](CCC(N)=O)NC(=O)[C@H](CC(C)C)NC(=O)[C@H](CC(C)C)NC(=O)[C@H](CCCN)NC(=O)[C@H](CCCNC(=N)N)NC(=O)[C@H](C)NC(=O)[C@H](CO)NC(=O)[C@H](CC(C)C)NC(=O)[C@H](CCC(N)=O)NC(=O)[C@H](CC)NC(=O)[C@H](CC(C)C)NC(=O)[C@@H](NC(=O)[C@H](CCCN)NC(=O)[C@H](CCCNC(=N)N)NC(=O)[C@H](Cc1ccc(O)cc1)NC(=O)[C@H](CO)NC(=O)[C@H](CCC(N)=O)NC(=O)[C@@H](NC(=O)[C@H](Cc1ccccc1)NC(=O)[C@@H](NC(=O)[C@H](C)NC(=O)[C@H](CC(=O)O)NC(=O)[C@@H](C)NC(=O)[C@H](Cc1ccc(O)cc1)NC)[C@@H](C)CC)[C@@H](C)O)C(C)C)[C@@H](C)CC)C(=O)N[C@@H](CC(=O)O)C(=O)NCCCCNC(=N)N; assay = GH release, ELISA; test system = male Sprague-Dawley rat, anaesthetised, serum; setting = subcutaneous, 3 µg/kg, 15 min; endpoint = serum GH level; value = 276 ± 46.4 ng/mL
SMILES = COC(=O)C1C(c2nc3ncccc3[nH]2)=Cc2cc3c(cc2C1c1cc(OC)c(OC)c(OC)c1)OCO3 (centres unmarked); assay = Alamar Blue; test system = splenocytes, mouse; how to read = reference: CC50 splenocytes over EC50 amastigotes; endpoint = selectivity index; value = 1.9
SMILES = C[n+]1cn(C2OC(COP(=O)(O)OP(=O)([O-])OP(=O)(O)OCC3OC(n4cnc5c(=O)[nH]c(N)nc54)C(O)C3O)C(O)C2O)c2nc(NCc3ccccc3)[nH]c(=O)c21 (centres unmarked); assay = cap-dependent translation, inhibitor; test system = rabbit reticulocyte lysate; setting = concentration not given; how to read = reference: m7GpppG; endpoint = relative inhibitory potency; value = 14.7 fold
SMILES = O=c1c(OCc2ccccc2)c(-c2ccc([N+](=O)[O-])cc2)oc2ccccc12; test system = diabetic rat; setting = 5 mg/kg, p-nitrophenyl β-glucoside induced; endpoint = serum alanine aminotransferase; value = 46 ± 3.04 IU
SMILES = [64Cu+2].c1cnc(CNCc2ccc(CN3CCCN4CCNCCCN(CC4)CC3)cc2)nc1; target or system = CXCR4; test system = NOD/SCID mouse, U87 and U87-stb-CXCR4 xenografts, bladder; setting = iv, 60 min, ex vivo; endpoint = tissue uptake; value = 2.15 ± 0.32 %ID/g
SMILES = COC(=O)N[C@H]1CC[C@@H](Nc2cc(NCc3ccccc3F)n3ncc(C(C)C)c3n2)CC1; assay = Western blot, refers to: phospho-Rb, phospho-Ser2 and phospho-Ser5 RNA polymerase II; test system = mice with HCT-116 xenograft; setting = 30 mg/kg per day, 14 days; how to read = reference: vehicle; endpoint = protein phosphorylation; value = decreased
SMILES = CCCCCCCOC(=O)Cc1c(C)n(C(=O)c2ccc(Cl)cc2)c2ccc(OC)cc12; assay = acetic acid writhing test; test system = BALB/c mouse; setting = intraperitoneal, 20 mg/kg; how to read = reference: negative control; endpoint = analgesia; value = 63.5%
SMILES = Cc1ccc(C(=O)Nc2ccc(CP(=O)(O)O)cc2CP(=O)(O)O)cc1NC(=O)c1cccc(NC(=O)Nc2cccc(C(=O)Nc3cc(C(=O)Nc4ccc(CP(=O)(O)O)cc4CP(=O)(O)O)ccc3C)c2)c1; test system = human plasma; setting = 329 µM; endpoint = APTT; value = 56.1 ± 6.7 s
SMILES = NS(=O)(=O)Nc1ncnc(OCCOc2ncc(Br)cn2)c1-c1ccc(Br)cc1; assay = metabolite formation; test system = male Beagle dog, liver microsomes; setting = 5 mg/kg daily for 4 weeks; endpoint = Vmax; value = 517 ± 15 pmol/min/mg
SMILES = CN1CCC[C@]1(C)/C=C/S(=O)(=O)NC(=O)Nc1c2c(cc3c1CCC3)CCC2; assay = IL-1β release; test system = human, whole blood ex vivo; setting = oral, 12.5 mg, 12 h after last dose, multiple ascending dose, with: LPS and ATP; endpoint = inhibition; value = ~90%
SMILES = C=C(c1ccc(C(=O)O)c(F)c1)c1cc2c(cc1C)C(C)(C)C=CC2(C)C; assay = RNA sequencing, refers to: Ifit3 mRNA; test system = rat, brain; setting = dose not given, 24 h, single dose; how to read = reference: vehicle; endpoint = log2 fold change; value = -0.37
SMILES = CCCC[C@H](NC(=O)[C@@H](NC(=O)[C@H](CC(=O)O)NC(=O)[C@H](CCC(N)=O)NC(=O)[C@H](CC(C)C)NC(=O)[C@H](CC(C)C)NC(=O)[C@H](CCCN)NC(=O)[C@H](CCCNC(=N)N)NC(=O)[C@H](C)NC(=O)[C@H](CO)NC(=O)[C@H](CC(C)C)NC(=O)[C@H](CCC(N)=O)NC(=O)[C@H](CC)NC(=O)[C@H](CC(C)C)NC(=O)[C@@H](NC(=O)[C@H](CCCN)NC(=O)[C@H](CCCNC(=N)N)NC(=O)[C@H](Cc1ccc(O)cc1)NC(=O)[C@H](CO)NC(=O)[C@H](CCC(N)=O)NC(=O)[C@@H](NC(=O)[C@H](Cc1ccccc1)NC(=O)[C@@H](NC(=O)[C@H](C)NC(=O)[C@H](CC(=O)O)NC(=O)[C@@H](C)NC(=O)[C@H](Cc1ccc(O)cc1)NC)[C@@H](C)CC)[C@@H](C)O)C(C)C)[C@@H](C)CC)C(=O)N[C@@H](CC(=O)O)C(=O)N[C@@H](CCCNC(=N)N)C(=O)NC; assay = GH release, ELISA; test system = male Sprague-Dawley rat, anaesthetised, serum; setting = subcutaneous, 3 µg/kg, 0 min; endpoint = serum GH level; value = 39.4 ± 5.3 ng/mL
SMILES = CC[C@H]1[C@@H](O)[C@@H]2[C@H](CC[C@]3(C)[C@@H]([C@H](C)CCOS(=O)(=O)[O-])CC[C@@H]23)[C@@]2(C)CC[C@@H](O)C[C@@H]12.[Na+]; assay = digital image analysis; test system = ob/ob NASH mouse model, liver; setting = oral, 3 mg/kg once daily, 8 weeks; how to read = reference: area; endpoint = fibrosis area; value = 13.6 ± 0.8%
SMILES = CCCCC/C=C/C(=O)CCc1ccc(O)c(OC)c1; target or system = mAb 4-AT4; assay = antibody binding, indirect competitive ELISA; setting = with: coating antigen hapten 3-OVA; endpoint = IC50; value = > 4 µg/mL

For quick reference, copied from above:
SMILES = CCc1nnc(NS(=O)(=O)c2ccc(NC(=S)NC(=O)/C=C/c3ccc(F)cc3)cc2)s1; test system = NXS2 allograft, A/J mice, tumour; setting = intraperitoneal, 20 mg/kg daily, 3 weeks; how to read = reference: vehicle; endpoint = IL-6 level; value = decreased
SMILES = O=c1c(OCc2ccccc2)c(-c2cccc([N+](=O)[O-])c2)oc2ccccc12; test system = diabetic rat; setting = 5 mg/kg, p-nitrophenyl β-glucoside induced; endpoint = serum alanine aminotransferase; value = 44.6 ± 2.98 IU
SMILES = O=C(CCN1CCC(O)CC1)Nc1nc(-c2ccccc2)cs1; setting = 0.1 mM, 20 min; endpoint = DPPH radical scavenging; value = 23.7%
SMILES = [64Cu+2].c1ccc(CNCc2ccc(CN3CCCN4CCNCCCN(CC4)CC3)cc2)nc1; target or system = CXCR4; test system = NOD/SCID mouse, U87 and U87-stb-CXCR4 xenografts, pancreas; setting = iv, 30 min, ex vivo; endpoint = tissue uptake; value = 1.31 ± 0.18 %ID/g
SMILES = COc1c2c(cc3oc(COC4OC(CO)C(O)C(O)C4O)cc(=O)c13)OC(C(C)(C)O)C2 (centres unmarked); assay = analgesia; test system = mouse; setting = oral, 2 mg/kg, 1 h; endpoint = hot plate latency; value = 11.1 ± 1.87 s
